Results collected from several papers.
Each numbered part is a random draw from the data of one study; scales do not carry over between parts. Positions count from the first letter of the parent shown.

Sample 1
Target: CCND2, cyclin fold, Cln2 fusion (human)
Method: yeast growth competition, sequencing
Matrix: yeast
Notes: weak parent motif
Reference: not given
Direction: higher = stronger binding
Starting sequence: viral docking peptide; TSVRRALFTGGSD; partner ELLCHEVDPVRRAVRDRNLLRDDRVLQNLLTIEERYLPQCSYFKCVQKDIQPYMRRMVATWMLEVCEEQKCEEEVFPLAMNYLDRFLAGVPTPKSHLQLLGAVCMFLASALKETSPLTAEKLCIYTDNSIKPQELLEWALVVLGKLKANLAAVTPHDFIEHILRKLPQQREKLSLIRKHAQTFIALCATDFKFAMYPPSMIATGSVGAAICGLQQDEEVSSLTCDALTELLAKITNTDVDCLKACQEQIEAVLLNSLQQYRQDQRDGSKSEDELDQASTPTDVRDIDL
Substitution	normalised enrichment score
TSTRRALFTGGSD [V3T]	-0.0379
TSVRRALFTCGSD [G10C]	-0.0536
TSVRRALNTGGSD [F8N]	0.187
TSVRRALFTGRSD [G11R]	-0.0868
TSVRRALFQGGSD [T9Q]	-0.444
TSVRRALFTPGSD [G10P]	-0.246
TGVRRALFTGGSD [S2G]	0.0607
TSVQRALFTGGSD [R4Q]	0.115
TSIRRALFTGGSD [V3I]	0.176
TSVRRAIFTGGSD [L7I]	0.301
ASVRRALFTGGSD [T1A]	0.557
TSVTRALFTGGSD [R4T]	0.0787
TSVRYALFTGGSD [R5Y]	-0.182
TSVRRACFTGGSD [L7C]	-0.0432
TSVRRALFWGGSD [T9W]	-0.526
TSVRCALFTGGSD [R5C]	-0.25
TSVRRALYTGGSD [F8Y]	-0.242

Sample 2
Target: Prothrombin, mature alpha-thrombin (F2, Homo sapiens, UniProt P00734)
Method: aptamer microarray, sandwich
Form: DNA with 2'F-ANA
Matrix: in vitro
Concentration: 200 nM
Notes: whole 15-mer aptamer, many near background
Together with: Cy3 exosite-II aptamer, 400 nM
Direction: higher = stronger binding
Sequence: GGTTGGTGTGGTTGG
Modification	mean fluorescence intensity
2'F-ANA at 2 4 5 6 10 11 13 14 15	80.7 a.u.
2'F-ANA at 1 2 3 4 5 8 9 11 14 15	55 a.u.
2'F-ANA at 5 6 7 12 15	158 a.u.
2'F-ANA at 1 2 4 6 7 9 11 13 15	71.7 a.u.
2'F-ANA at 2 3 7 8 12 13	1050 a.u.
2'F-ANA at 1 2 3 5 6 8 9 11 13 14 15	50.6 a.u.
2'F-ANA at 4 12 13 14 15	118 a.u.
2'F-ANA at 1 3 4 6 8 10 13	55.6 a.u.

Sample 3
Target: Sal-like protein 4, full length isoform B (SALL4, Homo sapiens, UniProt Q9UJQ4-2, residues 1-616)
Method: universal PBM
Form: double-stranded DNA, one strand shown
Matrix: in vitro
Concentration: not given
Notes: 8-mer, flanks averaged, mean of replicates
Direction: higher = stronger binding
Construct (chain): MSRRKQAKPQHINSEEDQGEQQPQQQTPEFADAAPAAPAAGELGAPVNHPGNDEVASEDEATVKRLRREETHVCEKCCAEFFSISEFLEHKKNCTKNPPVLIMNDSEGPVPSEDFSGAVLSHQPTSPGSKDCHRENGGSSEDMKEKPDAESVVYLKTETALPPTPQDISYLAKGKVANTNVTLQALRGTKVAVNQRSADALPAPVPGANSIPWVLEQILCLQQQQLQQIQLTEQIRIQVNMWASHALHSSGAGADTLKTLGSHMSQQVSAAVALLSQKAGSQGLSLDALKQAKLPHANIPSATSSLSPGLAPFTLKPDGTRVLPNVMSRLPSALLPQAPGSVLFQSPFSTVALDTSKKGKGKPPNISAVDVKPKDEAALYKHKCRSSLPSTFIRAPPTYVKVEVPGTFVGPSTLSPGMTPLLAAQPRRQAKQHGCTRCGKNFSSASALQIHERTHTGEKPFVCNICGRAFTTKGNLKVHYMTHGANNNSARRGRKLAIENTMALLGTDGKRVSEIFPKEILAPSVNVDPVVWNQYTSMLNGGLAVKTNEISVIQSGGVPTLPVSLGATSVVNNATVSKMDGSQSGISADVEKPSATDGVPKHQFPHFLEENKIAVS
Sequence	E-score
ACCGTAGA	0.0138
GAACTACA	-0.0954
AAATTAAA	0.345
ACGAACGA	0.0132
CCGCCTTA	-0.157
GGATGTGA	-0.0445
CACGGTAA	-0.0301
GCACCTGC	-0.221

Sample 4
Target: tungstate, free oxyanion
Method: microfluidic competitive inhibition
Matrix: in vitro, cell-free expressed
Concentration: not given
Notes: derived from inhibition constants, unchanged parent 2230 nM
Direction: lower = stronger binding
Starting sequence: PafA, mature enzyme, eGFP fusion (Elizabethkingia meningoseptica, UniProt Q9KJX5); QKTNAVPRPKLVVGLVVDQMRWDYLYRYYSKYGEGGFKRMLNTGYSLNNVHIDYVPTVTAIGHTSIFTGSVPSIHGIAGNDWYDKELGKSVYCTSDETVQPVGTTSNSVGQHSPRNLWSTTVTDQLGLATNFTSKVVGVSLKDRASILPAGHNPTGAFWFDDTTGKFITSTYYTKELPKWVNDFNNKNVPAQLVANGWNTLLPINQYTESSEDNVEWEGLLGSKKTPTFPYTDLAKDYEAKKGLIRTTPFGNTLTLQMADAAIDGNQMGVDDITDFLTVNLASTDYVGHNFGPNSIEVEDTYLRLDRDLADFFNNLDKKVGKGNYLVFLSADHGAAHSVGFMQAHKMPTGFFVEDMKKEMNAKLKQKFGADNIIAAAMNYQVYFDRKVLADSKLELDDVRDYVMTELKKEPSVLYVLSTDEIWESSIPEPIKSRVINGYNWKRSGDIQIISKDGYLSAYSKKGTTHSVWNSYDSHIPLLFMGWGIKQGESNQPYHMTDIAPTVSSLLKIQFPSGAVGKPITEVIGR
Substitution	oxyanion analog dissociation constant
N199G	1.99 µM
V382A	1.59 µM
Y24V	2.08 µM

Other studies, line by line
SMILES	target	observed	method	concentration	measurement	value
COc1ccc2c(c1)O[C@H](c1ccc(OC)c(OC)c1)C[C@@H]2NC(=O)C1(c2ccc3c(c2)OC(F)(F)O3)CC1	Calcium-dependent protein kinase 1 (CDPK1, Plasmodium falciparum, UniProt P62344)	cell-free assay	competition with immobilised ligand	1 µM	remaining binding	79%

Repeated from above (sample 1):
Substitution	normalised enrichment score
TSIRRALFTGGSD [V3I]	0.176
TSVRRAIFTGGSD [L7I]	0.301
TSVTRALFTGGSD [R4T]	0.0787
TSVRRALYTGGSD [F8Y]	-0.242
TSVRRALFQGGSD [T9Q]	-0.444
TSVRRALNTGGSD [F8N]	0.187
